Published values collected from several papers.
Parts stem from different laboratories: compare values within a part only.

Study 1
Target: Histone acetyltransferase KAT6A, both winged helices, GST fusion (KAT6A, Homo sapiens, UniProt Q92794, residues 1-181)
Method: protein binding microarray
Molecule type: double-stranded DNA, one strand shown
Medium: in vitro
Concentration: not given
Setting: 8-mer, flanks averaged, mean of 2 arrays, mostly near background
Baseline: not given
Reading: higher = stronger binding
Residues (chain): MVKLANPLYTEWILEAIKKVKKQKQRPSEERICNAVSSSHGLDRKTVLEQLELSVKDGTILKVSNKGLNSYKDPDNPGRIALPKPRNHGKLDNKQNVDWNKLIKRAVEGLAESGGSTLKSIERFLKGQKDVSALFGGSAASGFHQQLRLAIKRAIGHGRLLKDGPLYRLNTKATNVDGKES
Strand | E-score
AGAATATA | -0.00901
AGTCTTAG | -0.0684
ACACTAGA | -0.122
TCACACAA | -0.0621
CCATGTCC | 0.062
ATCCTTGC | -0.0574
GCTGCATA | -0.0774
ATTTCGGG | -0.108
ATTAATTG | -0.0554
ATGTCGAC | -0.113
ACGTTGAG | -0.0509
AAACCCTC | -0.00502
ATAGTTTG | -0.05
CGCACCGC | 0.283
ACGGTTAT | 0.13
ACGGCCGC | 0.405
GACCGTCA | 0.0747
AAAGATCA | 0.0115
GACCGTGC | 0.171
CACCGCCC | 0.133
AGATTGAA | -0.0172
CATGGGAC | -0.116

Study 2
Target: RNA binding protein fox-1 homolog 2, RRM domain, GST-SBP tag (RBFOX2, Homo sapiens, UniProt O43251-10, residues 100-194)
Method: RNA Bind-n-Seq
Molecule type: RNA
Medium: in vitro
Concentration: 365 nM
Setting: natural RNA segment, single round, ends assumed
Baseline: no-protein control
Reading: higher = stronger binding
All sequences stand within: GGGAGUUCUACAGUCCGACGAUC … UGGAAUUCUCGGGUGCCAA
Residues (chain): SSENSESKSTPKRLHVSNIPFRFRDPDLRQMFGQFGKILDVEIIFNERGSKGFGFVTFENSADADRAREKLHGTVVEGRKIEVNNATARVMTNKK
Strand | RBNS enrichment (R)
AAUACAAAGCAAAUCCUUCCCCAGCUAUGUGUUUUAGCCUUUGAGUAGGGGAGUUUCGGUGUACACAUUGAAUUUUCCACUUAUGUAAAUAAAACGGAUUUUGAUAAAUC | 0.582
CAAUAAGGGGAGAGUAACCCUGUCUAAUGAAACCUGUGUCUCUGAGAGUAGAGUCACUGGAACACUAAUGAGGAAACUGCACUGUUUUAUUUUAAUUCAGUUGUUAGUGU | 0.388
CCUCUUUGAGAAAAUGCACAAAGCCCUGGGAGAUGACAAGCACAAGGACUGACUCAAGCUGUGUCUUUCAGACCAAGGAACAUCAGAGAAGCUGUGGGGCUGCCUGCCAG | 1.46
UCCUUCCUUUUCCUUCUUCCUCCAGGUUUUUCAGGGGUCACUUCACAUUUCUAAAGAAAGAGUGAAUAGGCUGGGCAUGGUGGCUCAAGCCUCUAAUCUCAACGCUUUGG | 0.517
CCAGAAUGUAUUAUAAUAUAUUGCUAUUAGGUUACUCUACUAACUGGAGCCAUGCCGACCUCUACAAACCUUGAACAGGUGCACAGCCCCCUCUCCGGAGCGCUUUGUAA | 0.658
ACUGACAUGUUAACACCUGAUCACUCCCCCAGGCCCUUUUCCUGCCCCAUCCCUCCUAGGAAGAGAGAACUUUGCUGACGAUCUCACUACUUUUGAAGAAAAGAAGCCCU | 0.843
UAAGAAAAAUUUAAACAGUUUAAGAUUAUAUAAUUUUUUUUUCUUUUCUAUAUUGAGGUGGCCACCAUACUAAUAUUCUAAAUUUUCAAUAUUUGAACUUUUAACUCUUG | 0.826
CUCAGCUGGAUCAGGCAUCUACACACCCCAUUCUUCCAGGGGCCAGUGUCCACACCUGCAUGUAGGGAUUCGGUGUCCUGCUUAAUGCCUUCCCCUCUCGGGCUUCAUUC | 7.7
UUUUAGUCUAAGGAAAGCAUAGAUGAAGCAAUACUUUCCUUCUUUGAUGAAAAGCCUAGAAAUUAGUUCCUCUUAAAGUGCAAUAUUACUUAACCUCAGAAUCGGGCCAG | 0.359

Study 3
Target: Interferon regulatory factor 3, full length, phosphomimetic (IRF3, Homo sapiens, UniProt Q14653, residues 1-427, S386D/S396D/S398D/S402D/T404D/S405D)
Sequence of UniProt Q14653 (whole entry, unmodified, looked up): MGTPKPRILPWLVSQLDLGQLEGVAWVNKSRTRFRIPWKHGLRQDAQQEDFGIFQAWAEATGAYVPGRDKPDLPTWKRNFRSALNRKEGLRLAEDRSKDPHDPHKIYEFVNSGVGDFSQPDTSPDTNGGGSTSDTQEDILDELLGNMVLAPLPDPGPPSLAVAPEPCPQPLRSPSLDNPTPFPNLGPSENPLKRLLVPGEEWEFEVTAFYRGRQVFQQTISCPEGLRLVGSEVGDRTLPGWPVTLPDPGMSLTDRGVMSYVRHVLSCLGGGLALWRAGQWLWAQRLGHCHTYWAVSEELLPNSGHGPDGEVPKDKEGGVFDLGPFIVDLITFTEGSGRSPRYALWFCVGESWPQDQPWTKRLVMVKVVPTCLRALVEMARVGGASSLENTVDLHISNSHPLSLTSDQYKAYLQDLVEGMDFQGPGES
Method: protein-binding microarray
Molecule type: double-stranded DNA, one strand shown
Medium: in vitro
Concentration: 2540 nM top
Setting: 60-bp whole probe
Together with: salmon DNA 0.4 mg/ml
Baseline: random background probes
Reading: higher = stronger binding
All sequences stand within: GCCTAGCAC … GTCTTGATTCGCTTGACGCTGCTG
Strand | fitted relative affinity [z-score]
TCACCATTGGTCTTCACACTGTGCTAG | -0.0343
TTAGGTATCGGTCTCGTTTAGTGCTAG | 4.68
TCACTGCTACCCTCTGAAACTGTGCTA | -0.306
CTAGGACTGGACTATCGGTTAGTGCTA | -0.178
TTAGGACGGCTTTTCCTTTAGTGCTAG | 0.207
TTAGGTCTCCTTTTCCTTTCGTGCTAG | 5.4
GACGGTTTCGACTATTGGGACGTGCTA | 2.69
TCAATTGTCTCTGTCCCACTGTGCTAG | 0.169
GACGATATCGGGACCGGAGACGTGCTA | 0.288
TCACCCTTGCTTTCCAAACTGTGCTAG | 2.67
TTGGGACTGGGTTTCGGTTAGTGCTAG | 2.67
GACAGACTGGGGACTGGGGACGTGCTA | -0.782
AAGCAGTTACTCTAGAGGCCGTGCTAG | -0.621
CTAGTTTTCATTTTCTGAATGTGCTAG | 5.51
TTAGGTATCGACACTGGGTGAGTGCTA | 0.148
CTAGATTTCAGACTGGATTAGTGCTAG | 0.565
GACGAACTGAGTGTCGAGACGTGCTAG | -0.207
TATTCCCCATCACTCACTCTGTGCTAG | 1.36
GACGATATCAGTCTAGAGACGTGCTAG | 0.611
GACGGTTTCGGTATCGGGATGTGCTAG | 7.78
GACGATTTCGGTTTCGAGACGTGCTAG | 7.12
TCAACTCTCTAATTTTGAGAGTGCTAG | 0.377
TTAGGTTTCGACTAACGGTTAGTGCTA | 2.03
GACGGTATCGACAATGGGGACGTGCTA | 0.33
TTAGAACTGTGGTTTCGATTAGTGCTA | 2.26

Study 4
Target: RING finger protein unkempt homolog, zinc fingers 1-6, GST-SBP tag (UNK, Homo sapiens, UniProt Q9C0B0, residues 30-357)
Method: RNA Bind-n-Seq
Molecule type: RNA
Medium: in vitro
Concentration: not given
Setting: RNA with constant flanks, human and mouse sites, ends assumed
Baseline: input RNA pool
Reading: higher = stronger binding
All sequences stand within: GGGAGUUCUACAGUCCGACGAUC … CAACAGAGGAUUGAGCAUCA
Target sequence (chain): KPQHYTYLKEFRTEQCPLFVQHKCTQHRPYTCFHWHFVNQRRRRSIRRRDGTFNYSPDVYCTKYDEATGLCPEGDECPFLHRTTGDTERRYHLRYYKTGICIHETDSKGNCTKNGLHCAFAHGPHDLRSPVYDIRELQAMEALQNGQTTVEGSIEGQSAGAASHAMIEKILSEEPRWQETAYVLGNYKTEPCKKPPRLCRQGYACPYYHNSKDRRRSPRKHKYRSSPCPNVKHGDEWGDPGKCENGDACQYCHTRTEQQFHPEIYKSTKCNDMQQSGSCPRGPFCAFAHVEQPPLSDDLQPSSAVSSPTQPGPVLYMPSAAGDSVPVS
Strand | bound/input enrichment
GAGCCUUUAAUAUGUCCCCUUUGUAGAUCUAAGUGGAGAUCCCAUGACUUCUACAGCCAUGAGUUAUCAAGCCCCGUGGAGUCCCCCACCUCCCUGCGAGCUGUCCAGCAGCCAUCCUCC | 0.395 ratio
CCAGUUUGGGUGGAUGAAGAUGAUGAAGAUGAGGAAAUAGUUGACAUGUCGAACAAUCGGUUUCGGAAAGAUAUAAUGAAAAAUGCCAGUGAAAGUAAACUUUCAAAAGAUAAACUUCAA | 0.372 ratio
GCGGCGGCGGGGUCGCGGACAUGGCUUCUUGGAGCGCGCCUUCACCUAGCCUUGUAGAGUAUUUUGAGGGCCAGACCUCCUUCCAGUGUGGCUACUGCAAGAACAAGUUGGGCAGUCGCU | 0.355 ratio
CAUGCUCUUGCACUUUACAGAACUGAUGAUUACUUAGAUCAACCGUGUUAUGAAACCAUUAAUAGAAUUAAACUUUACAGUGAAUCUUUGGCAAGAUAUGGCAAAAGCCCAUACCUUUAU | 7.38 ratio
AGGGAAGACUUGAUCUGUGGACUUUUGAAAGCAACUUGAGGAAAAACACAUAACAGAAUCUAUAGGUGUGGACAAUAUGUGAUAUUGCUAAAUAAUGUCAAGUAGGAAAUAAAAGAGACU | 2.37 ratio
CUCCUUUACUUCCCAGAGAACUUCACAGAGACUCUGUCCUUCCAUGCAAAGGCUUCCUGAAAUAGGGAGACUGACUGAGUAGCUCAUUCUUGUGACUUACAGUGCCAACAUUUAAAAAAG | 0.427 ratio
UUCUGAUAAUUCUAGAGCCUGUUACCAUAGAAAGGUAUUUCUUCAAUGGCUGGUUGUAGUUAGUUCAUGUUUUUCAAUCAAUUUGCAAAUGUAUUUGUUGCUGUAUAGUGAUUGUUUUGC | 2.42 ratio
ACUGCCAUAGAACUUGCAGAGCUUCAGCCUCCUAUGUUUGACUUACACCCAAUGAGAGCAUUAUUUCUAAUGACAAAAAGCAAUUUUCAGCCUCCUAAACUAAAGGAUAAAAUGAAAUGG | 0.234 ratio
CAGUUUUUGGAAGAAGUCAAAGUAAGCAGAGAGAUGGACAGGGAAACACUUAUAGAUGUGGCCAGAACAUCUCUUCGUACUAAAGUUCAUGCUGAACUUGCAGAUGUCUUAACAGAGGCU | 0.0793 ratio
CCAGAUGACCGGUCGCAGGGAGCAGCCAUUGGGGGGCGGCCAGGACUGCCUGGCCCAGAGCAUAGCCCUGGCACAGAAUCUCAGCCUUCGUCGCCUUCUCCAACCCCAUCACCACCCCCA | 0.224 ratio
GAUCCUAUGGUUCGGAGUUUUGCUGUUCGGUGCUUAGAAAAAUAUUUAACAGAUGACAAACUUUCUCAGUACCUCAUUCAACUUGUACAGGUCUUAAAAUAUGAACAGUAUUUGGAUAAC | 0.928 ratio

A few entries again (study 3):
Strand | fitted relative affinity [z-score]
CTAGATTTCAGACTGGATTAGTGCTAG | 0.565
TTAGGACGGCTTTTCCTTTAGTGCTAG | 0.207
TCAATTGTCTCTGTCCCACTGTGCTAG | 0.169
AAGCAGTTACTCTAGAGGCCGTGCTAG | -0.621
TATTCCCCATCACTCACTCTGTGCTAG | 1.36
GACGATTTCGGTTTCGAGACGTGCTAG | 7.12
TTAGGTATCGGTCTCGTTTAGTGCTAG | 4.68
